Results from different studies.
Compare with care: the assays were run in different laboratories. Numbers after ± are the reported error.

SMILES | target or system | test | test system | conditions | how to read | endpoint | result
C[C@@H]1OC(=O)NN=C1c1ccc(-c2ccc(F)cc2)c(C(F)(F)F)c1 | – | phase I trial, refers to: non-cardiac chest pain | human patients | 5 mg load, 0.25 mg daily, worst grade 1 | – | patients with TEAE | 0%
CCCC(CCC)NC(=O)c1ccc2c(c1)OCO2 | – | – | Swiss albino CD-1 mice, male, bone marrow | intraperitoneal, 175 mg/kg, 36 h | – | micronucleated PCEs | 0.1%
COc1ccc2nc3cc(Cl)ccc3c(Nc3cc(CN4CCCC4)c(O)c(CN4CCCC4)c3)c2n1 | – | – | mouse, blood | intraperitoneal, 14 mg/kg | – | haemoglobin | 151 g/L
CC(C)[N+]1(C)[C@@H]2CC[C@H]1C[C@@H](OC(=O)C(CO)c1ccccc1)C2 (stereo partly shown) | – | – | human | inhaled | – | lung deposited fraction | 0.07
C[C@H]1COCCN1c1nc(NCc2cccnc2C(F)(F)F)c2cccnc2n1 | – | – | anaesthetized rat, plasma | intravenous, 10 mg/kg, 5 min | – | plasma concentration | 42000 ng/mL
CC(C)[C@@H]1NC(=O)CNC(=O)[C@H](CC(N)=O)NC(=O)[C@H](CCCNC(=N)N)NC(=O)[C@H](Cc2ccc(O)cc2)NC(=O)[C@H](C(C)C)NC(=O)[C@@H](NC(=O)[C@@H](NC(=O)[C@H](CC(N)=O)NC(=O)[C@H](Cc2c[nH]c3ccccc23)NC(=O)[C@H](C)NC(=O)[C@H](Cc2ccccc2)NC(=O)CN)C(C)C)CSSC[C@@H](C(=O)N[C@@H](Cc2cnc[nH]2)C(=O)N[C@@H](CCCNC(=N)N)C(=O)N[C@@H](CCCNC(=N)N)C(=O)N[C@@H](C)C(=O)N[C@@H](CC(N)=O)C(N)=O)NC(=O)[C@H](C(C)C)NC(=O)[C@H](CCCNC(=N)N)NC1=O | – | – | ICR mouse, blood | intramammary, 10 mg/kg, day 5, 3 d dosing | – | calcium | 1.37 ± 0.02 mmol/L
CCCCN1CCC(COC(=O)c2ccc(N)c(O[11CH3])c2)CC1 | – | PET | rhesus monkey, striatum | 60 min post injection | – | washout from peak | > 50%
Cn1cc(-c2nc(N[C@@H]3CCCC[C@@H]3N)c(F)c3c2C(=O)NC3)cn1 | – | refers to: Rectal haemorrhage | patients with relapsed or refractory AML | oral, 160 mg once daily | – | hemorrhagic adverse events | 11%
CN[C@H](CC(C)C)C(=O)N[C@H]1C(=O)N[C@@H](CC(N)=O)C(=O)N[C@H]2C(=O)N[C@H]3C(=O)N[C@H](C(=O)N[C@H](C(=O)O)c4cc(O)cc(O)c4-c4cc3ccc4O)[C@H](O)c3ccc(c(Cl)c3)Oc3cc2cc(c3O[C@@H]2O[C@H](CO)[C@@H](O)[C@H](O)[C@H]2O[C@H]2C[C@](C)(N)[C@H](O)[C@H](C)O2)Oc2ccc(cc2Cl)[C@H]1O | – | population PK model | human neonates | – | – | clearance, bootstrap median | 0.095 L/h
N[C@@H]1c2ccccc2OC12CCN(c1cnc3c(N4CCCc5ncccc54)n[nH]c3n1)CC2 | – | – | advanced metastatic solid tumour patients | oral, 40 mg once daily | – | TEAE leading to interruption | 50%
Cc1c(COC(=O)[C@@H]2[C@H](/C=C(\Cl)C(F)(F)F)C2(C)C)cccc1-c1ccccc1 (racemic) | – | refers to: CYP3A5 | human, age 6 months, recombinant human CYP3A5 | 0.1 µM | – | enzyme contribution to clearance | 2.36%
CCN1[C@@H](C(=O)NC23CCC(C(=O)O)(CC2)CC3)[C@H](c2cccc(Cl)c2F)[C@]2(C(=O)Nc3cc(Cl)ccc32)C12CCCCC2 | – | – | patients with advanced solid tumours | oral, 150 mg | – | any-grade adverse event incidence | 100%
CC1CCCN(CCCNC(=O)c2cc(Sc3ccc(F)cc3)nc3ccccc23)C1 (stereo not shown) | Vero-E6 | CellTiter-Glo ATP | – | concentration not given, 72 h, first round 5-point | relative to: DMSO 0%, hyamine -100%, more negative, more toxic | cytotoxicity efficacy | 0%
O=c1ccc2ncc(=O)n3c2n1C[C@H]3CN1CCC(NCc2cc3c(cn2)OCCC3)CC1 | – | – | healthy human volunteers, plasma | oral, 1500 mg single dose, geometric mean, alone | – | AUC(0-t) | 17700 ng·h/mL
Cc1cc(OCC(O)CN2CCN(c3cccc(Cl)c3)CC2)ccc1Cl (stereo not shown) | Vero-E6 | CellTiter-Glo ATP | – | concentration not given, 72 h, first round 5-point | relative to: DMSO 0%, hyamine -100%, more negative, more toxic | cytotoxicity efficacy | 0%
Nc1ncnc2c1ncn2[C@@H]1O[C@@H]2COP(=O)([S-])O[C@@H]3[C@H](O)[C@@H](COP([O-])(=S)O[C@H]2[C@H]1O)O[C@H]3n1cnc2c(N)ncnc21.[Na+].[Na+] (stereo partly shown) | – | – | non-tumor-bearing mice, serum | intravenous, 1 mg/kg, toxicity study | – | GGT | 0.075 ± 0.09 U/L
O=C(Nc1ccccc1)C1CCN(C(=O)Oc2cccnc2)CC1 | – | refers to: musculoskeletal disorders | healthy women | oral, 100 mg, 9 days | – | subjects with adverse event | 7.7%
COC(=O)C(C(C)C)N(Cc1ccc(-c2ccccc2-c2nn[nH]n2)cc1)N=O (stereo not shown) | – | – | cell culture medium | – | – | precipitation concentration | 100 to 1000 µM
C[C@H]1C[C@@H](N2C(=N)N[C@](C)(c3cccc(NC(=O)c4cccc(C#N)c4)c3Cl)CC2=O)CCO1 | – | – | Han Wistar rat male | oral, 1000 mg/kg, 7 days | – | free AUC(0-inf) | 436 µg·h/mL

SMILES | target or system | test | test system | conditions | how to read | endpoint | result
CO[C@H]1C[C@@H]2CC[C@@H](C)[C@@](O)(O2)C(=O)C(=O)N2CCCC[C@H]2C(=O)O[C@H]([C@H](C)C[C@@H]2CC[C@@H](OC(=O)NCCOCCOCCOCCOCCOCCOCCOCCOCCC(=O)N3CCc4cc(Cn5nc(-c6ccc7oc(N)nc7c6)c6c(N)ncnc65)ccc4C3)[C@H](OC)C2)C[C@@H](O)[C@H](C)/C=C(\C)[C@@H](O)[C@@H](OC)C(=O)[C@H](C)C[C@H](C)/C=C/C=C/C=C/1C | – | phase 1 dose escalation, refers to: pneumonia | advanced solid tumour patients | intravenous, 16 mg weekly, grade ≥3 | – | dose-reducing adverse events | 0%
CC(C)C[C@H](NC(=O)[C@H](CCCCN)NC(=O)OCC1c2ccccc2-c2ccccc21)C(=O)N[C@H](C(=O)N[C@@H](Cc1ccccc1)C(=O)N[C@@H](Cc1ccccc1)C(=O)N[C@@H](CCCCN)C(=O)NCC(=O)N[C@@H](Cc1ccccc1)C(=O)N[C@@H](C)C(=O)N[C@@H](Cc1c[nH]c2ccccc12)C(=O)N[C@@H](CC(N)=O)C(=O)N[C@H](C(=O)N[C@H]1CSSC[C@@H](C(=O)N[C@@H](Cc2c[nH]cn2)C(=O)N[C@@H](CCCNC(=N)N)C(=O)N[C@@H](CCCNC(=N)N)C(=O)N[C@@H](C)C(=O)N[C@@H](CC(N)=O)C(N)=O)NC(=O)[C@H](C(C)C)NC(=O)[C@H](CCCNC(=N)N)NC(=O)[C@H](C(C)C)NC(=O)CNC(=O)[C@H](CC(N)=O)NC(=O)[C@H](CCCNC(=N)N)NC(=O)[C@H](Cc2ccc(O)cc2)NC(=O)[C@H](C(C)C)NC1=O)C(C)C)C(C)C | – | – | ICR mouse, blood | intramammary, 10 mg/kg, day 5, 3 d dosing | – | calcium | 1.34 ± 0.02 mmol/L
COc1cc2c(Oc3ccc4[nH]c(C)cc4c3F)ccnc2cc1OCC1(N)CC1 | – | – | paediatric refractory sarcoma patients | 10 mg | – | Appendicitis incidence | 0%
CCc1ccc(CC/C=C/c2ccc3c(c2)C(=O)CC3)cc1 | – | – | Sprague-Dawley rat, male | oral, 120 mg/kg/day, 14 days | – | CK serum activity | 489 U/L
COc1c(N2CC3CCCN(C(=O)OCc4ccc([N+](=O)[O-])cc4)C3C2)c(F)cc2c(=O)c(C(=O)O)cn(C3CC3)c12 (stereo not shown) | – | cyclic voltammetry | anhydrous acetonitrile | concentration not given | relative to: Ag/AgCl | reduction potential | -1.21 V
C[C@]1(CO)Cc2ncn(-c3ccc(C#N)c(Cl)c3)c2C(=O)O1 | – | – | human, plasma | 40 mg, first dose fasted | – | tmax | 1 h
COc1ncccc1-c1cnn2ccc(N3CCN(C(=O)OC(C)C)CC3)nc12 | – | – | rat, STZ model, brain | oral, 30 mg/kg, 240 min | – | drug concentration | 29 µM
C[C@]1(O)C[C@@](N)(c2ccc(-c3nc4n(c3-c3ccccc3)COc3ccncc3-4)cc2)C1 | – | – | human, advanced or metastatic solid tumours | dose not given, all patients, any grade | – | patients with Hyperphosphatemia TEAE | 23.5%
CC(C)(C)c1cc(-n2nc3ccccc3n2)c(O)c(C(C)(C)C)c1 | – | – | human aged 6-11 years | concentration not given, spray sunscreen, mean | – | daily dermal exposure dose | 4.54 ng/kg/day
C/C(=N\C#N)N(C)Cc1ccc(Cl)nc1 | – | – | soil | 56 days, nominal 1.1 | – | recovery | 2%
Clc1ccc(-c2ccccc2)cc1 | – | – | rat Sprague-Dawley female, serum | inhalation, 23 µg/rat, 4 h | – | serum triglycerides | 59 ± 40 mg/dL
COc1ccc(-c2c(-c3ccc(C#N)c(F)c3)nc(N3CCC(N)CC3)n(C)c2=O)cc1F | – | refers to: Constipation | human patients | oral, dose not given, grade 3 to 4, dose escalation, NG | – | treatment-related adverse event incidence | 0%
CC(=O)c1c(C)c2cnc(Nc3ccc(C4CCN(CCS(C)(=O)=O)CC4)cn3)nc2n(C2CCCC2)c1=O | – | – | human, plasma | oral, 100 mg, day 1 single dose | – | t1/2 | 348 min
C[C@@H](NC(=O)N1C(=O)[C@H](Cc2ccnc(N)c2)[C@H]1C(=O)O)C1CCCCC1 | – | – | healthy Chinese adults | continuous intravenous infusion, 0.3 mg/kg/h, 5.0 days | – | related decreased WBC | 0%
O=S(=O)(Nc1ccccc1)c1ccc(NC(=S)Nc2ccccc2)cc1 | – | refers to: BUN | female mouse, blood | oral, 20 mg/kg daily, 14 days | – | blood chemistry level | 15.2 mg/dL
Clc1cc2c(cc1Cl)Oc1c(ccc(Cl)c1Cl)O2 | – | ultrafiltration | cow milk whey | 200 nM nominal in whole milk | – | final permeate concentration | 0.75 nM
CN1CCN(S(=O)(=O)c2cc([N+](=O)[O-])ccc2N(CCOS(C)(=O)=O)CCOS(C)(=O)=O)CC1 | – | – | NSG mice female, brain | intraperitoneal, 10 mg/kg, 0.5 h | – | concentration | 74 nM
CCCCCCCCCCCCCCCC(=O)N[C@@H](CCC(=O)NCCCC[C@H](NC(=O)[C@H](CC(=O)O)NC(=O)[C@H](CO)NC(=O)[C@@H](NC(=O)[C@H](Cc1ccccc1)NC(=O)[C@@H](NC(=O)CNC(=O)[C@H](CCC(N)=O)NC(=O)[C@H](CO)NC(=O)[C@@H](N)Cc1c[nH]cn1)[C@@H](C)O)[C@@H](C)O)C(=O)N[C@@H](CO)C(=O)N[C@@H](CCC(=O)O)C(=O)N[C@@H](Cc1ccc(O)cc1)C(=O)N[C@@H](CC(C)C)C(=O)N[C@@H](CC(=O)O)C(=O)N[C@@H](CO)C(=O)N[C@@H](CCC(=O)O)C(=O)N[C@@H](CCCNC(=N)N)C(=O)N[C@@H](C)C(=O)N[C@@H](CCCNC(=N)N)C(=O)N[C@@H](CC(=O)O)C(=O)N[C@@H](Cc1ccccc1)C(=O)N[C@H](C(=O)N[C@@H](C)C(=O)N[C@@H](Cc1c[nH]c2ccccc12)C(=O)N[C@@H](CC(C)C)C(=O)N[C@@H](CCC(=O)O)C(=O)N[C@@H](C)C(=O)NCC(=O)NCC(=O)O)C(C)C)C(=O)O | – | refers to: Dizziness | humans CrCl 45 to 60 mL/min | subcutaneous, 100 µg single dose | – | treatment-related adverse events | 0%

Some of these lines once more:
SMILES | target or system | test | test system | conditions | how to read | endpoint | result
O=c1ccc2ncc(=O)n3c2n1C[C@H]3CN1CCC(NCc2cc3c(cn2)OCCC3)CC1 | – | – | healthy human volunteers, plasma | oral, 1500 mg single dose, geometric mean, alone | – | AUC(0-t) | 17700 ng·h/mL
Cc1cc(OCC(O)CN2CCN(c3cccc(Cl)c3)CC2)ccc1Cl (stereo not shown) | Vero-E6 | CellTiter-Glo ATP | – | concentration not given, 72 h, first round 5-point | relative to: DMSO 0%, hyamine -100%, more negative, more toxic | cytotoxicity efficacy | 0%
Nc1ncnc2c1ncn2[C@@H]1O[C@@H]2COP(=O)([S-])O[C@@H]3[C@H](O)[C@@H](COP([O-])(=S)O[C@H]2[C@H]1O)O[C@H]3n1cnc2c(N)ncnc21.[Na+].[Na+] (stereo partly shown) | – | – | non-tumor-bearing mice, serum | intravenous, 1 mg/kg, toxicity study | – | GGT | 0.075 ± 0.09 U/L
O=C(Nc1ccccc1)C1CCN(C(=O)Oc2cccnc2)CC1 | – | refers to: musculoskeletal disorders | healthy women | oral, 100 mg, 9 days | – | subjects with adverse event | 7.7%
